Experimental data gathered from unrelated publications.
Protocols differ between the studies behind these lines. ± marks the error that the study gave.
Target: Tyrosine-protein phosphatase non-receptor type 1 (PTPN1, Homo sapiens, UniProt P18031)
Read-out: enzyme activity
Mode: inhibitor
One construct used (P18031 1-435): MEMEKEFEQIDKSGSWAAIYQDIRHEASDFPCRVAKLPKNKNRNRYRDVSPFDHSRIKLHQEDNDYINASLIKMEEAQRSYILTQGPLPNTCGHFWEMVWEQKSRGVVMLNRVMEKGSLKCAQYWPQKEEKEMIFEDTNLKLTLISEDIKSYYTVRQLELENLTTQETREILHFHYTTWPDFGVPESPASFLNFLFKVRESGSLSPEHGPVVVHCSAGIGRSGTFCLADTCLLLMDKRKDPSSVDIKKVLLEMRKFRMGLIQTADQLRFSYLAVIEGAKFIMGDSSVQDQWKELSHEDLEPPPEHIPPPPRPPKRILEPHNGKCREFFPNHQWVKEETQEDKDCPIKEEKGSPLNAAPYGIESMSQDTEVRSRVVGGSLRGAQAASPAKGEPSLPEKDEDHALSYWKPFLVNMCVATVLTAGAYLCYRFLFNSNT

C=CC1C(OC2OC(CO)C(O)C(O)C2O)OC=C(C(=O)OC)C1CC(=O)O (stereo not drawn)  IC50 (absorbance): 70.2 µM
CC(C)=CCc1cc(C2CC(=O)c3c(O)cc(O)cc3O2)c2c(c1O)C=CC(C)(C)O2 (stereo not drawn)  IC50 (absorbance): 26.6 µM
N[C@@H](CCC(=O)N[C@@H](CS[Se]Cc1ccc(C(=O)Nc2cc(C(F)(F)F)c(Br)c(C(F)(F)F)c2)cc1)C(=O)NCC(=O)O)C(=O)O  IC50 (together with: pNPP, GSH 1 mM): 50 ± 20 µM
CC(C)=CCC[C@](C)(O)[C@H]1CC[C@]2(C)[C@@H]1[C@H](O)C[C@@H]1[C@@]3(C)CC[C@H](O)C(C)(C)[C@@H]3CC[C@]12C  IC50 (absorbance): 13.4 µM
COc1cc(O)cc(-c2cc3ccc(OC)cc3o2)c1  IC50 (absorbance): > 100 µM
CC(C)=CCc1c(O)cc(O)c2c1O[C@H](c1ccccc1)[C@@H](O)C2=O  IC50 (absorbance): 3.52 µM
CC(C)=CCC[C@](C)(O[C@@H]1O[C@H](CO[C@@H]2OC[C@@H](O)[C@H](O)[C@H]2O)[C@@H](O)[C@H](O)[C@H]1O)C1CC[C@]2(C)C1[C@H](O)CC1[C@@]3(C)CC[C@H](O[C@@H]4O[C@H](CO)[C@@H](O)[C@H](O)[C@H]4O)C(C)(C)C3CC[C@]12C (stereo partly drawn)  IC50 (absorbance; pH 7.4): > 100 µM
O=C(O)c1ccc(O)cc1  IC50 (absorbance): > 100 µM
COc1cc(OC2OC(COC3OC(CO)C(O)C(O)C3O)C(O)C(O)C2O)c2c(O)c3c(=O)cc(C)oc3cc2c1 (stereo not drawn)  IC50 (absorbance): > 100 µM
O=c1ccc2ccc(O[C@@H]3O[C@H](CO)[C@@H](O)[C@H](O)[C@H]3O)c(O[C@@H]3O[C@H](CO)[C@@H](O)[C@H](O)[C@H]3O)c2o1  IC50 (absorbance): > 100 µM
COc1cc(O)cc(-c2cc3ccc(O)cc3o2)c1CC=C(C)CCC=C(C)CCC=C(C)C  IC50 (absorbance): 7.26 µM
C[C@@H]1O[C@@H](O[C@@H]2C(=O)c3c(O)cc(O)cc3O[C@@H]2c2ccc(O)cc2)[C@H](O)[C@H](O)[C@H]1O  IC50 (absorbance): 4.76 µM
O=C1O[C@H](c2ccc(O)cc2)Cc2cccc(O)c21  IC50 (absorbance): > 100 µM
CC1(C)C=Cc2c(ccc3c2O[C@@H](c2ccc(O)cc2O)CC3)O1  IC50 (absorbance): > 100 µM
COc1cc(O[C@@H]2O[C@H](CO)[C@@H](O)[C@H](O)[C@H]2O)c2c(O)c3c(=O)cc(C)oc3cc2c1  IC50 (absorbance): 87.4 µM
CC(=O)OC1CCC2(C)C(CCC3(C)C2CCC2C(C4=CC(C=C(C)C)OC4=O)CCC23C)C1(C)C (stereo not drawn)  IC50 (absorbance): 27.3 µM
C=CC1C(OC2OC(CO)C(O)C(O)C2O)OC=C(C(=O)OC)C1CC1CC(=O)CC(CCc2ccc(O)cc2)O1 (stereo not drawn)  IC50 (absorbance): > 100 µM
CC(C)=CCC[C@](C)(O[C@@H]1O[C@H](CO)[C@@H](O)[C@H](O)[C@H]1O)C1CC[C@]2(C)C1[C@H](O)CC1[C@@]3(C)CC[C@H](O[C@@H]4O[C@H](CO)[C@@H](O)[C@H](O)[C@H]4O[C@@H]4O[C@H](CO)[C@@H](O)[C@H](O)[C@H]4O[C@@H]4OC[C@@H](O)[C@H](O)[C@H]4O)C(C)(C)C3CC[C@]12C (stereo partly drawn)  IC50 (absorbance; pH 7.4): > 100 µM
O=C1O[C@H]([C@H](O)c2ccc(O)cc2)c2cccc(O)c21  IC50 (absorbance): > 100 µM
CC(C)=CCCC(C)=CCc1c(O)ccc2cc(-c3cc(O)c4ccoc4c3)oc12  IC50 (absorbance): 18 µM
CC(CO)C1CCC2(C)C3=CCC4C5(CCC(OC5=O)C4(C)C)C3=CCC12C (stereo not drawn)  IC50 (absorbance): > 34.7 µM

Repeated from above:
COc1cc(O)cc(-c2cc3ccc(OC)cc3o2)c1  IC50 (absorbance): > 100 µM
CC(C)=CCc1c(O)cc(O)c2c1O[C@H](c1ccccc1)[C@@H](O)C2=O  IC50 (absorbance): 3.52 µM
